# Measurements pooled from the literature.
# ± gives the spread as reported.
SMILES,cell line,test,system,conditions,scale,endpoint,value
COC[C@@H](NC(C)=O)C(=O)NCc1ccc(-c2cccc(Cl)c2)cc1,CAD,inhibitor,,concentration not given,,use-dependent Na+ current,decreased
CC(C)C[C@H](NC(=O)[C@H](CO)NC(=O)[C@H](C)NC(=O)[C@@H]1CCCN1C(=O)[C@H](Cc1c[nH]c2ccccc12)NC(=O)[C@H](CS)NC(=O)[C@H](CCC(=O)O)NC(=O)[C@H](CC(=O)O)NC(=O)[C@H](CC(N)=O)NC(=O)[C@H](CC(C)C)NC(=O)[C@@H](NC(=O)CNC(=O)[C@H](CC(C)C)NC(=O)[C@H](CO)NC(=O)[C@H](C)NC(=O)[C@H](C)NC(=O)[C@H](C)NC(=O)CNC(=O)[C@H](CCC(=O)O)NC(=O)[C@H](CO)NC(=O)[C@@H]1CCCN1C(=O)[C@H](CC(C)C)NC(=O)[C@H](Cc1ccccc1)NC(=O)[C@H](CCC(N)=O)NC(=O)[C@H](CCC(=O)O)NC(=O)[C@H](CCCNC(=N)N)NC(=O)[C@H](CO)NC(=O)[C@@H](NC(=O)[C@H](C)NC(=O)[C@H](C)N)[C@@H](C)O)[C@@H](C)O)C(=O)O,MELOE-1 36-44 specific CD8 T cell clone,TNFα production,,"cross-presentation, together with: mature dendritic cells",,EC50,0.013 µM
C=C1C(=O)O[C@H]2[C@H]1CCC(COC(=O)c1ccc(C(F)(F)F)cc1C(F)(F)F)=C1CC[C@@](C)(O)[C@@H]12,M9-ENL1 leukaemia cells,annexin V/7-AAD flow cytometry,,"24 h, 5% human plasma",,CC50,5.2 µM
COc1c(C)cc2c(c1OC)OCO2,DU-145,"cell growth or viability, MTT",,72 h,,GI50,> 250 µM
CC/C=C\C/C=C\C/C=C\C/C=C\C/C=C\C/C=C\CCC(=O)Nc1ccn(C2OC(CO)C(O)C2(F)F)c(=O)n1 (stereo not shown),OVCAR-3,NCI60 screen,,,,CC50,49.6 µM
CC[C@H](C)[C@@H]1NC(=O)[C@H](Cc2c[nH]c3ccccc23)NC(=O)[C@H](CCCCCC(=O)NO)NC(=O)[C@H]2CCCCN2C1=O,iPSC-derived neural progenitor cells,ELISA,,"1 µM, 18 h",baseline: vehicle,intracellular progranulin level,~2.5 fold increase
N=C(N)NCCC[C@H](NC(=O)[C@H](CCCNC(=N)N)NC(=O)[C@H](CCCNC(=N)N)NC(=O)[C@H](CCC(N)=O)NC(=O)[C@H](CCCNC(=N)N)NC(=O)[C@H](CCCNC(=N)N)NC(=O)[C@H](CCCCN)NC(=O)[C@H](CCCCN)NC(=O)[C@H](CCCNC(=N)N)NC(=O)[C@H](Cc1c[nH]c2ccccc12)NC(=O)[C@H](Cc1c[nH]c2ccccc12)NC(=O)[C@@H](N)CSSC[C@H](N)C(=O)N[C@@H](Cc1c[nH]c2ccccc12)C(=O)N[C@@H](Cc1c[nH]c2ccccc12)C(=O)N[C@@H](CCCNC(=N)N)C(=O)N[C@@H](CCCCN)C(=O)N[C@@H](CCCCN)C(=O)N[C@@H](CCCNC(=N)N)C(=O)N[C@@H](CCCNC(=N)N)C(=O)N[C@@H](CCC(N)=O)C(=O)N[C@@H](CCCNC(=N)N)C(=O)N[C@@H](CCCNC(=N)N)C(=O)N[C@@H](CCCNC(=N)N)C(=O)NCC(N)=O)C(=O)NCC(N)=O,sample A primary mouse astrocytes,flow cytometry,,"2.5 µM, 1 h, analysed 24 h after, together with: TAT-Cre 2 µM",,tdTomato-positive cells,≥ 50%
CC1=CC(C)=[N+]2C1=Cc1ccc(CCC(=O)NCC3C[NH][Pt]([Cl])([Cl])[NH]3)n1[B-]2(F)F (stereo not shown),CP20 cells,flow cytometry,,"25 µM, 45 min",baseline: parental KB 3-1 cells,accumulation reduction,25%
CCCc1cc(OC)c2c(c1)OCO2,T47D,cell growth or viability,,72 h,,GI50,> 250 µM
C=C(CC(O)C(=O)O)C(=O)O (racemic),K562 TET2/TET3 knockout,,,,baseline: parental K562,fold lower IC50,~4 fold
N=C(N)NCCC[C@H](N)C(=O)NCC(=O)N[C@@H](CCC(=O)O)C(=O)O,NIH 3T3 fibroblasts,,peptide-functionalised PEG-glass,"concentration not given, 4 h",,cell spreading area,554 ± 125 µm²
CC[C@@]1(O)C(=O)OCc2c1cc1n(c2=O)Cc2cc3cc(OC(=O)CCCC(=O)NCC(=O)N[C@@H](Cc4ccccc4)C(=O)N[C@@H](Cc4ccccc4)C(=O)N[C@@H](Cc4ccc(O)cc4)C(=O)NCCS)ccc3nc2-1,HepG2 spheroids,,,"100 µM, 7 days",baseline: initial,spheroid volume,~50%
CC(C)C[C@H](NC(=O)[C@H](C)NC(=O)[C@H](CCCCN)NC(=O)CCNC(=S)Nc1ccc2c(c1)C(=O)OC21c2ccc(O)cc2Oc2cc(O)ccc21)C(=O)N[C@@H](CCC(=O)O)C(=O)N[C@H](C(=O)N[C@@H](CC(C)C)C(=O)N[C@@H](CCCNC(=N)N)C(=O)N[C@@H](CCCNC(=N)N)C(=O)N[C@H](C(=O)NCC(=O)N[C@@H](CC(=O)O)C(=O)NCC(=O)N[C@H](C(=O)N[C@@]1(C)CCC/C=C\CCC[C@@](C)(C(=O)N[C@H](C(=O)N[C@@H](C)C(=O)N[C@@H](Cc2ccccc2)C(N)=O)[C@@H](C)O)NC(=O)[C@H](Cc2c[nH]cn2)NC(=O)[C@H](CC(N)=O)NC(=O)[C@H](CCCNC(=N)N)NC1=O)C(C)C)C(C)C)[C@@H](C)O,OPM-2,MTT,,"up to 40 µM, 24 h",,viability,no effect
COc1cc(C)c(OC)c(OC)c1OC,T47D,cell growth or viability,,72 h,,GI50,> 250 µM
CCNc1cc2[o+]c3cc(NCC)c(C)cc3c(-c3ccccc3C(=O)OCCOCC[18F])c2cc1C,rat cardiomyocytes,,,60 min,baseline: activity,uptake,55 ± 6.8%
CCCCCCCCC[P+](c1ccccc1)(c1ccccc1)c1ccccc1,A-375,"cell growth or viability, MTT",,72 h,,GI50,0.254 µM
C=CCc1ccc(OC(=O)COC(=O)Cn2cnc3c2c(=O)n(C)c(=O)n3C)c(OC)c1,RAW264.7,"ELISA, refers to: IL-1β",,"1 µM, together with: LPS",baseline: LPS alone,inhibition,43.4%
N=C(N)Nc1ccc(-c2nc3ccc(-c4ccc5nc(-c6ccc(NC(=N)N)cc6)[nH]c5c4)cc3[nH]2)cc1,FECD patient corneal endothelial cells,"RT-qPCR, refers to: TCF4 retained intron 3",,,reduction,lowest effective concentration,1 µM
CCOC(=O)c1ccc(NC(=S)Nc2ccc3c(c2)C(C)(C)CC(C)(C)S3)cc1,CAKI-1,cell growth or viability,,48 h,,EC50,7.28 µM
CC(C)CC(O)(CC(C)C)c1cn(C(=O)N2CCCC2)nn1,mouse T-cells,"SILAC proteomics, refers to: FBXO7",,"1 nM, 6 h, unit not given",baseline: DMSO,protein level,1.1 ± 0.04
Cc1cccc(O)c1C(=O)OCC1(O)C(Nc2ccc3c(c2)Cc2ccccc2-3)C(N)C(NC(=O)N(C)C)(C(C)O)C1(C)O (stereo not shown),OVCAR-3,"cell growth or viability, SRB",,,,GI50,0.73 µM
O=C(O)CCC(NP(=O)(O)OCCC[C@@H](NC(=O)CCC(NC(=O)CCCCCNC(=O)c1ccc([18F])cc1)C(=O)O)C(=O)O)C(=O)O (stereo partly shown),CWR22Rv1,,,2 h,,cell uptake,2.28 ± 0.12%
CCCc1cc(OC)c(OC)c(OC)c1OC,A-375,"cell growth or viability, MTT",,72 h,,GI50,> 250 µM
Cc1cc(C)c(-n2ccn(-c3c(C)cc(C)cc3C)c2=[Se])c(C)c1.[Cl][Au],PSN1,"cell growth or viability, MTT",,72 h,,IC50,1.1 µM
CCCc1cc(OC)c2c(c1OC)OCO2,T47D,"cell growth or viability, MTT",,72 h,,GI50,90.2 µM
CCCCCCCC(=O)SCCC=CC1CC(=O)NCc2nc(cs2)C2=NC(C)(CS2)C(=O)NC(C(C)C)C(=O)O1 (stereo not shown),HLF,cell growth or viability,,,,GI50,> 10 µM
CC[C@H](C)[C@H](NC(=O)[C@H](Cc1ccccc1)NC(=O)[C@H](CC(=O)O)NC(=O)[C@H](CCCCN)NC(=O)[C@H](C)NC(=O)[C@H](CCCCN)NC(=O)[C@H](CC(N)=O)NC(=O)[C@H](CC(C)C)NC(=O)[C@H](Cc1c[nH]c2ccccc12)NC(=O)[C@H](CCC(=O)O)NC(=O)[C@H](CCCCN)NC(=O)[C@@H](NC(=O)CN)[C@@H](C)O)C(=O)N[C@@H](CCCCN)C(=O)N[C@@H](CCC(=O)O)C(=O)N[C@@H](CCCCN)C(=O)NCC(=O)N[C@@H](CC(C)C)C(=O)NCC(=O)N[C@@H](CCSC)C(=O)N[C@@H](CC(C)C)C(=O)N[C@@H](CO)C(=O)N[C@@H](C)C(=O)N[C@@H](C)C(=O)N[C@@H](C)C(=O)N[C@@H](CC(N)=O)C(=O)N[C@@H](C)C(=O)N[C@@H](C)C(=O)N[C@@H](CC(C)C)C(=O)N[C@@H](CC(N)=O)C(=O)O,F11 cells,"intracellular calcium, FLIPR",,0.1% BSA,,EC50,> 100 µM
CCCCCCCCCCCCCCCC[P+](c1ccccc1)(c1ccccc1)c1ccccc1,A-375,"cell growth or viability, MTT",,72 h,,GI50,0.52 µM
Cc1cc(C)c(N2CCN(c3c(C)cc(C)cc3C)C2=[Se])c(C)c1.[Cl][Au],A2780 ADR,MTT,,,baseline: A2780 ADR over A2780,resistance factor,1
CCCc1cc2c(c(OC)c1OC)OCO2,DU-145,"cell growth or viability, MTT",,72 h,,GI50,> 250 µM
CCCCN(CCCC)[C@H]1C=C[C@]2(O[C@H]([C@@H](CC)C(=O)[C@@H](C)[C@@H](O)[C@H](C)[C@@H]3O[C@@H]([C@@H](CC)C(=O)O)CC[C@@H]3C)[C@@H](C)C[C@H]2C)O[C@@]12CC[C@@](C)([C@H]1CC[C@](O)(CC)[C@H](C)O1)O2,HMLER CD24low/CD44high,"cell viability, CellTiter-Blue",,72 h,baseline: IC50 HMLER CD24high/CD44low over CD24low/CD44high,selectivity ratio,7.6
CNC(=O)c1cc(Oc2ccc(NC(=O)c3ccc(-c4cccc(COC(=O)CCC(=O)OC5OC6OC7(C)CCC8C(C)CCC(C5C)C68OO7)c4)cn3)cc2)ccn1 (stereo not shown),Huh-7,annexin V/PI flow cytometry,,"1.25 µM, 24 h",,apoptotic cells,6.9%
CN1C(=O)C2(Cc3ccc(CC45SSC(CO)(C(=O)N4C)N(C)C5=O)cc3)SSC1(CO)C(=O)N2C (racemic),MCF7,"microarray, refers to: TP53, CREB1, ETS2, GTF2F1, TAF10, TAF13",,"concentration not given, together with: deferoxamine or hypoxia",,mRNA level,no effect
[Cl][Au].[Se]=c1n(C2CCCCC2)ccn1C1CCCCC1,PSN1,"cell growth or viability, MTT",,72 h,,IC50,2.7 µM
